Published values gathered from unrelated publications.
Compare with care: the assays were run in different laboratories. ± gives the spread as reported.
PIK3CD: Phosphatidylinositol 4,5-bisphosphate 3-kinase catalytic subunit delta isoform (PIK3CD, Homo sapiens, UniProt O00329)
UniProt O00329, sequence (whole entry, looked up): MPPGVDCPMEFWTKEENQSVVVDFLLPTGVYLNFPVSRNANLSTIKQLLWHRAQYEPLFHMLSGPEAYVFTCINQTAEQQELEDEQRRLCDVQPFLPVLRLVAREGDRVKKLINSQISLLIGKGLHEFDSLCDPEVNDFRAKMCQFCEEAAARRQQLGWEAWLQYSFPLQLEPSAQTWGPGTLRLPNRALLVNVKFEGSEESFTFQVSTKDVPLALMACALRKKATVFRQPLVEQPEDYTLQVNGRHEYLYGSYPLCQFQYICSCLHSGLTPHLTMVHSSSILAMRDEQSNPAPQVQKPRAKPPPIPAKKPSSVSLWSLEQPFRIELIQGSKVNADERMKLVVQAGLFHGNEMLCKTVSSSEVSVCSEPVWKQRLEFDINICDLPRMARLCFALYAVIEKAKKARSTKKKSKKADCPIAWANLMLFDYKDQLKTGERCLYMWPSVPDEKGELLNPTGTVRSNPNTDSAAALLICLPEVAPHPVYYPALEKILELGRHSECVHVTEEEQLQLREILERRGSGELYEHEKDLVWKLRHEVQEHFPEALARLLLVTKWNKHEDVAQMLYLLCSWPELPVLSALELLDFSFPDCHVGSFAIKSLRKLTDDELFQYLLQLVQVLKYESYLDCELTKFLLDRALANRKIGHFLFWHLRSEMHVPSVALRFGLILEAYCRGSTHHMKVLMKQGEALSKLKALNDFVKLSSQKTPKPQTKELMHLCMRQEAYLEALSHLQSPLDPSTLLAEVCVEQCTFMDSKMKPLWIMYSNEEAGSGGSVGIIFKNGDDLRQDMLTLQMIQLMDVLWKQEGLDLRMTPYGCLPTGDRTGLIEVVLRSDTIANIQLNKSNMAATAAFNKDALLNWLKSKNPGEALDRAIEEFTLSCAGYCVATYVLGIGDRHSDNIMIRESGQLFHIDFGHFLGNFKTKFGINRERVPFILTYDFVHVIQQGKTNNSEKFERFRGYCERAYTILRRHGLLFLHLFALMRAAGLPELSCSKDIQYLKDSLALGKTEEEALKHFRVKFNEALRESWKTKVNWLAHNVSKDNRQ
SLC7A5: Large neutral amino acids transporter small subunit 1 (SLC7A5, Homo sapiens, UniProt Q01650)
UniProt Q01650, sequence (whole entry, looked up): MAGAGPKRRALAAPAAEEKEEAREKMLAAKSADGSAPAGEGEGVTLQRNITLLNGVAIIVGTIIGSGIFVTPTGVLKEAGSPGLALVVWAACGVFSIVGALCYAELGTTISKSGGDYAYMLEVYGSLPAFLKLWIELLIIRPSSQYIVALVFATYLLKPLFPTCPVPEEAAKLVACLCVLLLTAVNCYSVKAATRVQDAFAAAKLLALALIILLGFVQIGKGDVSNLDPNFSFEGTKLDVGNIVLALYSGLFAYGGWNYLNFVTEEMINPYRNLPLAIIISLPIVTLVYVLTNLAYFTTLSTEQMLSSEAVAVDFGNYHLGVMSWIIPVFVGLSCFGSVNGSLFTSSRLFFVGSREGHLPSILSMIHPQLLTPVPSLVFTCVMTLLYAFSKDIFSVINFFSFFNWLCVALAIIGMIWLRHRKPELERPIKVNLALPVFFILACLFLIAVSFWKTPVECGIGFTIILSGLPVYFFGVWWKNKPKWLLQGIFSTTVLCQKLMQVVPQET
NTSR1: Neurotensin receptor type 1 (NTSR1, Homo sapiens, UniProt P30989)
UniProt P30989, sequence (whole entry, looked up): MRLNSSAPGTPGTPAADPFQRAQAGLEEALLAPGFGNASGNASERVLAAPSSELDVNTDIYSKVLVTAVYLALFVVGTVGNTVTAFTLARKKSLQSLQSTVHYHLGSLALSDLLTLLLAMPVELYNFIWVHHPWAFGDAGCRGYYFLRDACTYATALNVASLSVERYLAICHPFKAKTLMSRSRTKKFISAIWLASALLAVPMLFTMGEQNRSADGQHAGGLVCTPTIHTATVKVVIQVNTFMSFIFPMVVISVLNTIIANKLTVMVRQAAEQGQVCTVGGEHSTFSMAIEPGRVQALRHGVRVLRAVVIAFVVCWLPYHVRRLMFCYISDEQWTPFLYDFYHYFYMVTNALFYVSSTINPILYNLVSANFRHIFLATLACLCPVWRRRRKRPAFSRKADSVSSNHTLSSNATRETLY
ppa: Inorganic pyrophosphatase (ppa, Escherichia coli, UniProt P0A7A9)
UniProt P0A7A9, sequence (whole entry, looked up): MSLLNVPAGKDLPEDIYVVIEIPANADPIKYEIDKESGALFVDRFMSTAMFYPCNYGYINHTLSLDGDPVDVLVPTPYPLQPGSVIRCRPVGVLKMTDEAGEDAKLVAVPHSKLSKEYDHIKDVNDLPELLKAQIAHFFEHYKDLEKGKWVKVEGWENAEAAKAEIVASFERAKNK
NNMT: Nicotinamide N-methyltransferase (NNMT, Homo sapiens, UniProt P40261)
UniProt P40261, sequence (whole entry, looked up): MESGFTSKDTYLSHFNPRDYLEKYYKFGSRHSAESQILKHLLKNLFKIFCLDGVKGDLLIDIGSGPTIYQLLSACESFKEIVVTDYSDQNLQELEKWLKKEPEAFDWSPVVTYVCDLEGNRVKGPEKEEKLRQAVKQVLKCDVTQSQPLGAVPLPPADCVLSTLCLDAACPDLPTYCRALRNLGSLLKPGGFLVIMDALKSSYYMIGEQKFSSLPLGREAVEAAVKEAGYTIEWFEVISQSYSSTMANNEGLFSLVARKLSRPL
DNA dC->dU-editing enzyme APOBEC-3B C-terminal domain: DNA dC->dU-editing enzyme APOBEC-3B, C-terminal domain (Homo sapiens, UniProt Q9UH17)
UniProt Q9UH17, sequence (whole entry, looked up): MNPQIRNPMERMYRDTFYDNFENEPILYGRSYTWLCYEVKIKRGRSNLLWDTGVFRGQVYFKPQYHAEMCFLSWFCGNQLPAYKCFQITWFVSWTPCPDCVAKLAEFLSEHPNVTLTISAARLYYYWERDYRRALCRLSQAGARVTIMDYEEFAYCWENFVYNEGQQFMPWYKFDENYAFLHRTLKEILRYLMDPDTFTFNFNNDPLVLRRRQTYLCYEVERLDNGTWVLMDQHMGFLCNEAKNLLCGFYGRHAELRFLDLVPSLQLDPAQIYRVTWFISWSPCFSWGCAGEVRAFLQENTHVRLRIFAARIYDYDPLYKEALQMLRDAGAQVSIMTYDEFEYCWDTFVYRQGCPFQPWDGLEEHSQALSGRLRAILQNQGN
Gria1: Glutamate receptor 1 (Gria1, Rattus norvegicus, UniProt P19490)
UniProt P19490, sequence (whole entry, looked up): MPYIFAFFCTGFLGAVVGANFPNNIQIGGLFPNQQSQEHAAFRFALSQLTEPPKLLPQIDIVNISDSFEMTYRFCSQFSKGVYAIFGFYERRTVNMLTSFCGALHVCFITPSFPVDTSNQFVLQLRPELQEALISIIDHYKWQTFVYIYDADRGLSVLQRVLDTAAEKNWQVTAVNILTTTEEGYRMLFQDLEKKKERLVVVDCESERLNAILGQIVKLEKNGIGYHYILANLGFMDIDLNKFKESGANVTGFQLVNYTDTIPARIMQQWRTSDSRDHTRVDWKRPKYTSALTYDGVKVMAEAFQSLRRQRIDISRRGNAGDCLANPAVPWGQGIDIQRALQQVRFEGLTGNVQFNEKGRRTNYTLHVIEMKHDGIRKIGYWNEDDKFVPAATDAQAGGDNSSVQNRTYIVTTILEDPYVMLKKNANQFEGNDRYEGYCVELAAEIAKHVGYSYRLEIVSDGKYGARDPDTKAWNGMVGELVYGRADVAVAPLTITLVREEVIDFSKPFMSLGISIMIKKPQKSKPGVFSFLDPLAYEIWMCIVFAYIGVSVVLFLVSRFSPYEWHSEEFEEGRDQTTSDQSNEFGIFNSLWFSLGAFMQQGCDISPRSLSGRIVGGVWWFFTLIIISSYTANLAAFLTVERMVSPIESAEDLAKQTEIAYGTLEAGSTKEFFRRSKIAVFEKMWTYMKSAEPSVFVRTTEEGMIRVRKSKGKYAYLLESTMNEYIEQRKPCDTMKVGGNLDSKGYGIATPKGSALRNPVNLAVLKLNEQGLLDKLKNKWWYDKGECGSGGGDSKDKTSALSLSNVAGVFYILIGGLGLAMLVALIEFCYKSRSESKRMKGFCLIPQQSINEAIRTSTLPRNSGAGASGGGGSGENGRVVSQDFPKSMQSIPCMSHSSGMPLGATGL
ADRB2: Beta-2 adrenergic receptor (ADRB2, Homo sapiens, UniProt P07550)
UniProt P07550, sequence (whole entry, unmodified, looked up): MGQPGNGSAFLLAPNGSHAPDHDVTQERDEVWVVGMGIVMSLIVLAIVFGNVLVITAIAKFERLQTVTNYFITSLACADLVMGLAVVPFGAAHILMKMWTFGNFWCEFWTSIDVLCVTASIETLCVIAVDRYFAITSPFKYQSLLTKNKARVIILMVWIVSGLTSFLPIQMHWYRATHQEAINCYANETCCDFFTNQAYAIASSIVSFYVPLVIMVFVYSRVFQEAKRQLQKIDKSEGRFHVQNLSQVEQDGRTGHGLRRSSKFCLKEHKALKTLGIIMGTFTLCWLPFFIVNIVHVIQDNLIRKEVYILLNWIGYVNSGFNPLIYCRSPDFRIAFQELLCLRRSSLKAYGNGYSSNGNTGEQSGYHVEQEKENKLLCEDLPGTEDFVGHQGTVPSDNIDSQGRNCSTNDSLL
glpG: Rhomboid protease GlpG (glpG, Escherichia coli, UniProt P09391)
UniProt P09391, sequence (whole entry, looked up): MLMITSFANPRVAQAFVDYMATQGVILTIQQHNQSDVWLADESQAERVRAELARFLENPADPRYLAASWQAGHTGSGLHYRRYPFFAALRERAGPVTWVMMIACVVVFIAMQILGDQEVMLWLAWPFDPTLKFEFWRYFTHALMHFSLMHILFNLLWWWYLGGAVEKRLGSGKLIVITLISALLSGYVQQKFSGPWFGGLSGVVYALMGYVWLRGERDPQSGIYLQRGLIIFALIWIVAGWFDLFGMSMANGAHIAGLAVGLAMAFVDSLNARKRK
Uncharacterized protein: Uncharacterized protein (Trypanosoma brucei brucei, UniProt Q386Q8)
CHRM3: Muscarinic acetylcholine receptor M3 (CHRM3, Homo sapiens, UniProt P20309)
SRC: Proto-oncogene tyrosine-protein kinase Src (SRC, Homo sapiens, UniProt P12931)

| Compound | target | assay | system | setting | IC50 [µM] |
| --- | --- | --- | --- | --- | --- |
| O=C(CCc1ccccc1)N1C(=O)C2(NC(c3ccc(F)cc3)C3(C(=O)Nc4ccccc43)N2Cc2ccc(F)cc2)c2ccccc21 (centres unmarked) | PIK3CD | enzyme activity, inhibitor, ADP detection |  |  | 0.0797 |
| N[C@@H](Cc1c[nH]c2ccc(OCc3ccc(I)cc3)cc12)C(=O)O | SLC7A5 | transporter uptake, inhibitor, radiometric |  |  | 22.7 |
| CN(C)c1nc(NCc2ccc(F)cc2F)c(/N=N/c2ccc(Cl)cc2)c(N(C)C)n1 | Chitinase (OfChi-h, Ostrinia furnacalis, UniProt Q4AE59) | enzyme activity, inhibitor, fluorescence |  |  | 0.12 |
| COc1ccccc1C1CCN(c2nc(C3(F)CC3)nc3ccc(N(C)CCN4CCOCC4)cc23)CC1 | NTSR1 | G protein activation, antagonist, BRET |  |  | 3.72 |
| O=C(Cc1ccc(OCc2ccccc2)cc1)NC1(C(=O)O)CCN(C(=O)c2ccc(-c3cccc(Cl)c3)cc2)CC1 | G-protein coupled receptor 55 (GPR55, Homo sapiens, UniProt Q9Y2T6) | antagonist, GloSensor cAMP |  |  | > 10 |
| C=CC(=O)N1C[C@H](C)N(c2nc(OC[C@@]34CCCN3C[C@H](F)C4)nc3c(F)c(-c4ccc(F)c5sc(N)c(C#N)c45)c(C(F)(F)F)cc23)C[C@H]1C | GTPase KRas, GppNHp; with RAF1 RBD (KRAS, Homo sapiens, UniProt P01116, G13D) |  |  |  | 0.7 ± 0.08 |
| Cc1ccc2c(c1Br)C(O)(CC(=O)c1ccc3c(c1)OCO3)C(=O)N2 (centres unmarked) | ppa | enzyme activity, inhibitor |  |  | > 300 |
| COc1ccccc1/C=C1\C(=O)Nc2ccc(Nc3nc(C)nc4ccccc34)cc21 | PIK3CD | enzyme activity, inhibitor, ADP detection |  |  | > 1 |
| Cc1ccc(C(N)=O)cn1 | NNMT | enzyme activity in cells, inhibitor |  |  | 7.94 |
| N[C@@H](Cc1c[nH]c2ccc(OCc3ccccc3-c3ccoc3)cc12)C(=O)O | SLC7A5 | transporter uptake, inhibitor, radiometric |  |  | 15.6 |
| C[C@@H](Nc1nc2c(cnn2C(C)(C)C)c(=O)n1Cc1cccc(F)c1)c1ccc(Cl)cc1 | High affinity 3',5'-cyclic-AMP phosphodiesterase 7A (PDE7A, Homo sapiens, UniProt Q13946) | enzyme activity, inhibitor |  |  | 0.827 |
| O=c1cnnc(Nc2ccc(O)cc2)[nH]1 | DNA dC->dU-editing enzyme APOBEC-3B C-terminal domain | deaminase activity, inhibitor, UDG-coupled deamination |  |  | 1190 ± 45 |
| O=C(O)Cc1cc2c(cc1C(=O)c1ccccc1Cl)OCO2 | Gria1 | ion current, patch clamp |  |  | 4.46 |
| COc1ccc(-c2coc3cc(O)cc(O)c3c2=O)cc1 | Cytochrome P450 2C9 (CYP2C9, Homo sapiens, UniProt P11712) | enzyme activity, inhibitor | human, liver microsomes | 15 min | 17.3 |
| FC(F)(F)c1cccc(Nc2nc(NC3CCCCC3)c3ccccc3n2)c1 | ADRB2 | β-arrestin recruitment, antagonist |  |  | 3 |
| CCC1(O)CCCN(C(=O)c2cccc(C#N)c2)C1 (centres unmarked) | DNA dC->dU-editing enzyme APOBEC-3B (Homo sapiens, UniProt Q9UH17) | enzyme activity, inhibitor, HPLC |  |  | 591 |
| Cn1c(/C=C/c2cn(C)c3ccccc23)nc2ccccc2c1=O | ppa | inhibitor, counter-screen, coupling enzyme alone |  |  | 73.9 |
| O=C(O)Cc1cc2c(cc1C(=O)c1ccccc1)OCO2 | Gria1 | glutamate-evoked current, inhibitor, whole-cell patch clamp | HEK293T, homomeric receptor |  | 5.62 |
| O=C1CC(c2ccccc2)N1S(=O)(=O)c1cccc(Cl)c1 (centres unmarked) | glpG | enzyme activity, inhibitor |  |  | 2.7 |
| NC1=NCCc2ccccc21 | NNMT | enzyme activity in cells, inhibitor |  |  | > 31.6 |
| O=C(CCc1ccco1)N1C(=O)C2(NC(c3ccc(F)cc3)C3(C(=O)Nc4ccccc43)N2Cc2ccc(F)cc2)c2ccccc21 (centres unmarked) | PIK3CD | enzyme activity, inhibitor, ADP detection |  |  | 0.348 |
| O=Cc1ccc(-c2ccc(O)cc2)c(C(=C2C=CC(=O)C=C2)c2ccc(O)cc2)c1C#Cc1ccc(O)cc1 | 3',5'-cyclic-AMP phosphodiesterase 4D (PDE4D, Homo sapiens, UniProt Q08499) | enzyme activity, inhibitor |  |  | 0.338 |
| CC1(C)C(=O)N=C2C1=C(O)C(=O)c1ccccc12 | Histone-lysine N-methyltransferase EHMT1 (EHMT1, Homo sapiens, UniProt Q9H9B1) | enzyme activity, inhibitor |  |  | > 100 |
| CC(=O)NC1C(=O)N(c2ccccc2)N=C1C (centres unmarked) | Uncharacterized protein | enzyme activity, inhibitor, coupled colorimetric |  | with: E. coli pyrophosphatase coupling | 31.3 |
| CCN1/C(=C/C(C)=O)Sc2ccc(F)cc21 | Alpha-1A adrenergic receptor (Adra1a, Rattus norvegicus, UniProt P43140) | ligand displacement, radioligand |  |  | > 30 |
| O=C(CCNC(=O)CNC(=O)CC(c1ccccc1)(c1ccccc1)c1ccccc1)NCC1CCN(C(=O)c2ccc(F)cc2)CC1 | CHRM3 | ligand displacement, radioligand |  | cell membranes | > 30 |
| CCOc1cc(CN2CCC3(CC2)CN(c2ccc(C(=O)O)cc2)C(=O)N3)c(C2CC2)cc1C | Somatostatin receptor type 5 (SSTR5, Homo sapiens, UniProt P35346, F201A) | cAMP level, antagonist, GloSensor | AD293 | F201A mutant, bandwidth 5.38, with: CST17 EC80 and forskolin | 0.00708 |

| Compound | target | assay | system | setting | IC50 [µM] |
| --- | --- | --- | --- | --- | --- |
| Fc1ccc(Nc2nc(NC3CCCCC3)c3ccccc3n2)cc1F | Beta-2 adrenergic receptor (ADRB2, Homo sapiens, UniProt P07550, L155C) | β-arrestin2 recruitment, antagonist, BRET | HEK293 | mutant L155C, with: isoprenaline 1 µM | 2 |
| CCc1cc(NC)ncc1C(N)=O | NNMT | enzyme activity in cells, inhibitor |  |  | 0.398 |
| COC(=O)Cc1cc2c(cc1C(=O)c1ccc(Cl)cc1Cl)OCO2 | Gria1 | glutamate-evoked current, inhibitor, whole-cell patch clamp | HEK293T, homomeric receptor |  | 5.01 |
| Cc1nn(-c2cccc(N)c2)c(=O)c2cnc(Nc3ccc(N4CCNCC4)cc3)nc12 | SRC | enzyme activity, inhibitor |  |  | 1.24 |
| CC(C)(C)NC(=O)CC(NC(=O)CCc1ccccc1)C(=O)NCCNC(=O)c1ccc(-c2ccccc2)cc1 (centres unmarked) | Proteasome component C5/PSMB5 (Homo sapiens, UniProt P20618+P28074) | enzyme activity, inhibitor |  | constitutive proteasome β5c | > 100 |
| CC(=O)C1=C(c2ccc(OC(F)F)cc2)N(C(C)=O)n2cnnc2S1 | Uncharacterized protein | enzyme activity, inhibitor, coupled colorimetric |  | with: E. coli pyrophosphatase coupling | 42.4 |
| CCOc1ccc2[nH]c(-c3ccccn3)nc2c1 | Core-binding factor subunit beta, with RUNX1 Runt domain (Homo sapiens, UniProt Q13951) | Runt domain binding, inhibitor, FRET |  |  | ≥ 34 |
| CC(C)(C)OC(=O)N1CCN(c2ccc3c(O)c(C(=O)NCc4ccc(C#N)nc4)ncc3n2)CC1 | Lysine-specific demethylase 4D (KDM4D, Homo sapiens, UniProt Q6B0I6) | enzyme activity, inhibitor |  |  | > 10 |
| O=C1CC(c2ccccc2)N1C(=O)Oc1ccccc1 (centres unmarked) | glpG | substrate cleavage, inhibitor | NR698 |  | 5.4 |
| COc1ccccc1C1CCN(c2nc(C3(F)CCCC3)nc3ccc(N(C)CCO)cc23)CC1 | NTSR1 | G protein activation, antagonist, BRET |  |  | 5.68 |
| O=C(NC1CCC1)c1ccc2nc(-c3cccc(NS(=O)(=O)NCCc4c[nH]cn4)c3)cn2c1 | Protein AF-9, YEATS domain (Homo sapiens, UniProt P42568) | YEATS domain binding, inhibitor, HTRF |  |  | 0.058 |
| CCN(CC)CC(=O)Nc1cccc(-n2cc(-c3ccc4ccc(-c5cn(-c6cccc(NC(=O)CN(CC)CC)c6)nn5)cc4c3)nn2)c1 | SRC | enzyme activity, inhibitor |  |  | > 10 |
| CCC1(O)CCCN(C(=O)c2ccc(-c3ccccc3C(F)(F)F)cc2)C1 (centres unmarked) | DNA dC->dU-editing enzyme APOBEC-3B C-terminal domain | ssDNA binding, inhibitor, fluorescence polarization displacement |  | with: fluorophore-labelled ssDNA | 533 |
| COc1ccc(Nc2nc(NC3CCCCC3)c3ccccc3n2)cc1OC | ADRB2 | cAMP production, antagonist, GloSensor |  | with: isoproterenol 1 µM | > 50 |
| CO[C@@H](C[C@H]1C(C)=CC[C@@H]2[C@]3(C)C[C@H](O[C@@H]4O[C@@H](C)[C@H](OC(=O)c5cccc(O)c5)[C@@H](O)[C@H]4O)[C@@H](O)C(C)(C)[C@H]3CC[C@]21C)[C@H](N)C(=O)O | SLC7A5 | transporter uptake |  |  | 0.25 |
| COc1ccccc1C1CCN(c2nc(C3CC3)nc3c(C)cc(N(C)CCO)cc23)CC1 | NTSR1 | G protein activation, antagonist |  |  | 2.57 |
| COc1ccc(C(=O)CC2(O)C(=O)Nc3cc(Cl)cc(Cl)c32)cc1OC (centres unmarked) | ppa | enzyme activity, inhibitor |  |  | > 100 |
| COc1ccccc1C1CCN(c2nc(C3CC3)nc3ccc(N(C)CCO)cc23)CC1 | NTSR1 | G protein activation, antagonist, BRET |  |  | 7.04 |
| O=C(CCNC(=O)CNC(=O)CC(c1ccccc1)(c1ccccc1)c1ccccc1)NC[C@H]1CCCN(C(=O)c2ccc(F)cc2)C1 | CHRM3 | ligand displacement, radioligand |  | cell membranes | > 30 |
| Clc1ccc(Nc2nc(NC3CCCCC3)c3ccccc3n2)cc1 | ADRB2 | β-arrestin recruitment, antagonist |  |  | 0.8 |
| COc1ccccc1N1Cc2ccc(OC)c(OC)c2C1=O | ppa | enzyme activity, inhibitor |  |  | > 100 |
| Cc1cnc(Nc2ccc3c(c2)CCN(C(=O)/C=C/C(=O)C2CCC(C)CC2)C3)nc1-c1cnn(C(C)C)c1 (centres unmarked) | Tyrosine-protein kinase JAK1 (JAK1, Homo sapiens, UniProt P23458) | enzyme activity, inhibitor, ADP detection |  |  | > 0.03 |
| COc1ccc(OC)c(C2=Nn3c(nnc3-c3ccccc3)SC2)c1 | Uncharacterized protein | inhibitor, coupled colorimetric | Trypanosoma brucei |  | 449 |
| Clc1ccc(Nc2nc(NC3CCCCC3)c3ccccc3n2)cc1Cl | ADRB2 | β-arrestin recruitment, antagonist |  |  | 3 |
| CC(C)c1ccc(/C=C/C(=O)c2ccc(F)cc2)cc1 | Amine oxidase [flavin-containing] B (MAOB, Homo sapiens, UniProt P27338) | enzyme activity, inhibitor |  |  | 0.035 |
| CN(C)c1cc(N)c2cc(Cl)ccc2n1 | Uncharacterized protein | enzyme activity, inhibitor, coupled colorimetric |  | with: E. coli pyrophosphatase coupling | 43.8 |

Excerpt of the above:
| Compound | target | assay | system | setting | IC50 [µM] |
| --- | --- | --- | --- | --- | --- |
| O=Cc1ccc(-c2ccc(O)cc2)c(C(=C2C=CC(=O)C=C2)c2ccc(O)cc2)c1C#Cc1ccc(O)cc1 | 3',5'-cyclic-AMP phosphodiesterase 4D (PDE4D, Homo sapiens, UniProt Q08499) | enzyme activity, inhibitor |  |  | 0.338 |
| CC1(C)C(=O)N=C2C1=C(O)C(=O)c1ccccc12 | Histone-lysine N-methyltransferase EHMT1 (EHMT1, Homo sapiens, UniProt Q9H9B1) | enzyme activity, inhibitor |  |  | > 100 |
| CC(=O)NC1C(=O)N(c2ccccc2)N=C1C (centres unmarked) | Uncharacterized protein | enzyme activity, inhibitor, coupled colorimetric |  | with: E. coli pyrophosphatase coupling | 31.3 |
| CCN1/C(=C/C(C)=O)Sc2ccc(F)cc21 | Alpha-1A adrenergic receptor (Adra1a, Rattus norvegicus, UniProt P43140) | ligand displacement, radioligand |  |  | > 30 |
| O=C(CCNC(=O)CNC(=O)CC(c1ccccc1)(c1ccccc1)c1ccccc1)NCC1CCN(C(=O)c2ccc(F)cc2)CC1 | CHRM3 | ligand displacement, radioligand |  | cell membranes | > 30 |
| CCOc1cc(CN2CCC3(CC2)CN(c2ccc(C(=O)O)cc2)C(=O)N3)c(C2CC2)cc1C | Somatostatin receptor type 5 (SSTR5, Homo sapiens, UniProt P35346, F201A) | cAMP level, antagonist, GloSensor | AD293 | F201A mutant, bandwidth 5.38, with: CST17 EC80 and forskolin | 0.00708 |
| Fc1ccc(Nc2nc(NC3CCCCC3)c3ccccc3n2)cc1F | Beta-2 adrenergic receptor (ADRB2, Homo sapiens, UniProt P07550, L155C) | β-arrestin2 recruitment, antagonist, BRET | HEK293 | mutant L155C, with: isoprenaline 1 µM | 2 |
